{"data": "Published values from different studies", "note": "A part holds a random share of what one study measured."}
{"data": "Block 1", "target": "RNA binding protein fox-1 homolog 2, RRM domain, GST-SBP tag (RBFOX2, Homo sapiens, UniProt O43251-10, residues 100-194)", "method": "RNA Bind-n-Seq", "form": "RNA", "sample": "in vitro", "tested at": "365 nM", "notes": "natural RNA segment, single round, ends assumed", "baseline": "no-protein control", "direction": "higher = stronger binding", "Construct (chain)": "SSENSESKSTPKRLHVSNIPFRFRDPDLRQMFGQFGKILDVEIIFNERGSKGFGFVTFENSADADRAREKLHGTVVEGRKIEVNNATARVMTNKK"}
{"Oligonucleotide": "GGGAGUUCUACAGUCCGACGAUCUUGACUUGGAAAGACUUUCAUCUCCUUGGAACCAAGACUUCCUGAGUCCCCCUCACCCUGGCCCUGUUCCACCAUGGUUAUCUGGGUAUUGGGGAAUGGAAACUUUGGGGUGGAAUUCUCGGGUGCCAA", "RBNS enrichment (R)": 0.217}
{"Oligonucleotide": "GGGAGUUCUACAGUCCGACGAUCCAUCAUAUUGAUGAGCGAACAAACAAGAACAUUUCCUCCCUCCCCUCCUUUGAAUUGAAAUGGCACAUUAAGACUUGUCACGGCUUCUCACUGGGACUGGAGACCUCGUUUGGAAUUCUCGGGUGCCAA", "RBNS enrichment (R)": 0.414}
{"Oligonucleotide": "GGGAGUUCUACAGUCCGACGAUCACAGAGUCAGCCUCUAGUAGACCCUGCUCUUUUGCCCCUGGGGCGGGGAGGGUUGGCAGUGGUGGGGCCCAUCCUCUAUCCUGUAGCUCCUGCCGCUGCGAGGCUGAACUUGGAAUUCUCGGGUGCCAA", "RBNS enrichment (R)": 0.353}
{"Oligonucleotide": "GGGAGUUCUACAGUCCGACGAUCUUUAAGAAAUAACCUCUUACAGUUGUAACCAUUGCGGCUCUGUCCACUUCUCGUUGCUGCUCUGUGGCACAUAUCGGAAGCAGUACAGCGCGCGGCUCUACACGCUUGGGUGGAAUUCUCGGGUGCCAA", "RBNS enrichment (R)": 0.219}
{"Oligonucleotide": "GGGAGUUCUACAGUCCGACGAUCGCCUGCAGCAACAGAACACUUGACCUUAAAAGUCUCUUCUGGUCUUUGGAUUAGAAAAGGCUUAUGUUAGCAACCUCAGAGACUUGAGCCCUGCUAAGUGACUGACCACUUGGAAUUCUCGGGUGCCAA", "RBNS enrichment (R)": 0.567}
{"Oligonucleotide": "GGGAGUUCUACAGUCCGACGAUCCCAUUGAUUCAGGAAGCAGAUUUUUUGAGUGCCUAUAUGUGAGACAGUGUGCUGGUUGAAGGCCUGAUGCUGUUAUUCCAGGAGACUGCAGGCCCUUGAUGCCAGGACUCUGGAAUUCUCGGGUGCCAA", "RBNS enrichment (R)": 0.532}
{"Oligonucleotide": "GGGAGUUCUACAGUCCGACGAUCCCAUUACUUACCUAGUCAUUGUGGAACAUGACUAUGGAGAGCAUUGUAUAUUUCUAUCUGGUAGUAAUGUGUAUUUACAACAUCUGUCACUGCAGUGUUACCGGAGCUUCUGGAAUUCUCGGGUGCCAA", "RBNS enrichment (R)": 0.805}
{"Oligonucleotide": "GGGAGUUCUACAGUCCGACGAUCGGCCUUAAAGGAAAUGGACAAAAAUUAUCCAGAAGGGGUACUUUUCCAUUGUAUCUUUCUAAUAAGGGUUUAAAAUGGUACUAUUAUGGUAUUGUACUUGGGCUUUAACAUGGAAUUCUCGGGUGCCAA", "RBNS enrichment (R)": 0.381}
{"data": "Block 2", "target": "Sal-like protein 4, full length isoform A (SALL4, Homo sapiens, UniProt Q9UJQ4, residues 1-1053)", "method": "universal PBM", "form": "double-stranded DNA, one strand shown", "sample": "in vitro", "tested at": "600 nM", "notes": "8-mer, flanks averaged, mean of replicates", "direction": "higher = stronger binding", "UniProt Q9UJQ4, sequence (whole entry, looked up)": "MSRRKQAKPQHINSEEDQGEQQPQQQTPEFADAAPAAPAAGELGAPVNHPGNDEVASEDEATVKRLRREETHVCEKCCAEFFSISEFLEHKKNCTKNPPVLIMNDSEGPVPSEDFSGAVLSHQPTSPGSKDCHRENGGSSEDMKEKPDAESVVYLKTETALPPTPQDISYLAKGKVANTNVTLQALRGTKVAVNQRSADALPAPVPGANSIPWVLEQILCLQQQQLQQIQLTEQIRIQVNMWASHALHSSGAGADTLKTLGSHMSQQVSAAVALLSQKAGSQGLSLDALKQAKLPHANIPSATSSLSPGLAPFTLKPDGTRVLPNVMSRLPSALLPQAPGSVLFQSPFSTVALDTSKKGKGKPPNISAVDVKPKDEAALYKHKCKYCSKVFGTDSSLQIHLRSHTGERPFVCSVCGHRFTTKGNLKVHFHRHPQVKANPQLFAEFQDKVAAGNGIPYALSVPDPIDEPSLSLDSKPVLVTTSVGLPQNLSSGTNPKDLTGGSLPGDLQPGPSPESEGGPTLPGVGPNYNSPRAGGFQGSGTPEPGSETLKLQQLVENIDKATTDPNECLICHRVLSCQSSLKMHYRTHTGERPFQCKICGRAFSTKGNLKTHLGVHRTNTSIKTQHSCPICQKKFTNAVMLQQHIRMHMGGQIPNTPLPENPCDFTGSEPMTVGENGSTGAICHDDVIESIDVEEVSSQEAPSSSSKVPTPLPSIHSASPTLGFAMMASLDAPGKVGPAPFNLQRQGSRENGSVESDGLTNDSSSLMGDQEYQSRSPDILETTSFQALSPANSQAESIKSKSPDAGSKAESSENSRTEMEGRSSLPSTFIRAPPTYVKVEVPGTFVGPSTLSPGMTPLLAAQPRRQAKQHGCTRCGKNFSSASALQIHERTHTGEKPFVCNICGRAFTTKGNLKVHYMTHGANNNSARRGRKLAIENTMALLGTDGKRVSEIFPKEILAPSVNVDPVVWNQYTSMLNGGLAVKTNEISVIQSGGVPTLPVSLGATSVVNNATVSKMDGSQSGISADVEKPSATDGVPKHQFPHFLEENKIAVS"}
{"Oligonucleotide": "AAGAATTG", "E-score": 0.153}
{"Oligonucleotide": "ACTAAGGG", "E-score": -0.131}
{"Oligonucleotide": "ACGAGTAT", "E-score": 0.12}
{"Oligonucleotide": "GTCGAGCA", "E-score": -0.184}
{"Oligonucleotide": "CTAAATTA", "E-score": 0.286}
{"Oligonucleotide": "GGAACAGA", "E-score": -0.0243}
{"Oligonucleotide": "TTCGAGAA", "E-score": 0.0918}
{"Oligonucleotide": "GAGAAACC", "E-score": -0.2}
{"Oligonucleotide": "CCATGCAG", "E-score": -0.286}
{"Oligonucleotide": "ATTTCTTA", "E-score": 0.279}
{"Oligonucleotide": "ATAACTTA", "E-score": 0.377}
{"Oligonucleotide": "ACCTCTAG", "E-score": 0.0413}
{"Oligonucleotide": "AACAGCAA", "E-score": 0.149}
{"Oligonucleotide": "CAACCGGC", "E-score": -0.202}
{"Oligonucleotide": "ATGACGTC", "E-score": 0.00448}
{"Oligonucleotide": "AACTGGGC", "E-score": -0.346}
{"Oligonucleotide": "ATTCAAAC", "E-score": 0.286}
{"data": "Block 3", "target": "Histone acetyltransferase KAT6A, winged helix 1, GST fusion (KAT6A, Homo sapiens, UniProt Q92794, residues 1-85)", "method": "protein binding microarray", "form": "double-stranded DNA, one strand shown", "sample": "in vitro", "tested at": "not given", "notes": "8-mer, flanks averaged, mean of 2 arrays, mostly near background", "baseline": "not given", "direction": "higher = stronger binding", "Target sequence (chain)": "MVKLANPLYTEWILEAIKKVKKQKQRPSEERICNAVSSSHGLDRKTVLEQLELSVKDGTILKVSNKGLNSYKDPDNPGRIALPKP"}
{"Oligonucleotide": "CCTGGTGC", "E-score": -0.0204}
{"Oligonucleotide": "ATCATGGA", "E-score": -0.218}
{"Oligonucleotide": "AGGTCCCA", "E-score": -0.257}
{"Oligonucleotide": "AATCCGTA", "E-score": 0.188}
{"Oligonucleotide": "CAAGAACA", "E-score": -0.202}
{"Oligonucleotide": "CTCTTAAA", "E-score": -0.293}
{"Oligonucleotide": "TACTGATA", "E-score": -0.0951}
{"Oligonucleotide": "GACGCTCA", "E-score": 0.0802}
{"Oligonucleotide": "CCTTGCGC", "E-score": 0.197}
{"Oligonucleotide": "TGAGACAA", "E-score": -0.172}
{"Oligonucleotide": "ACCGATAG", "E-score": 0.0511}
{"data": "Block 4", "target": "Fragile X messenger ribonucleoprotein 1, C-terminal low-complexity region (Fmr1, Mus musculus, UniProt P35922)", "method": "RNA Bind-n-Seq", "form": "RNA", "sample": "in vitro", "tested at": "200 nM", "notes": "whole 134-nt RNA, ends assumed", "with": "150 mM LiCl", "baseline": "input library", "direction": "higher = stronger binding", "all molecules": "7-deaza-guanosine replaces G"}
{"Oligonucleotide": "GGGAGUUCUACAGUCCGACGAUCUGCUGUUAUCUGGAACUCCUACCUGUCCUGGAAGGCACAUCGGCUCUAAGCCUGCCUCACUCCAUCGUUUCCACCUUGCAGUGAUGCAGCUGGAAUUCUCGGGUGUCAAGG", "log2 enrichment": -2.23}
{"Oligonucleotide": "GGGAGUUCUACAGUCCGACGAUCGCAGGAAGUAAAAACAAAUGGAAAUGCUUCGGAUAGUGGCAGGGGUGGGGGUUGCUAAGGAAAGGGUGGGAUGGGAGUGGGUAAAGAGAUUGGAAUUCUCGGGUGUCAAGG", "log2 enrichment": 1.74}
{"Oligonucleotide": "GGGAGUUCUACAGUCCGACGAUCAAGUCCUGUGCUACACAUCGUAUGUACCGAAUCGGGAAAGGGGAAAGGGGAAAGGGAAAGUAUUAUGUUACGCCGUUCGGAUCUGCACUUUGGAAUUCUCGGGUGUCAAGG", "log2 enrichment": 0.0669}
{"Oligonucleotide": "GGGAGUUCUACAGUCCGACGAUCAGAGAAUAAGAAUUCAGCUGACAGGAGGCCUCUAUCCUGUCCCUCCACCCCACCCUCCACCUCAAUCCCCUCCCAUCUUCCCCAGACCUAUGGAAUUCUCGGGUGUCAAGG", "log2 enrichment": 1.45}
{"Oligonucleotide": "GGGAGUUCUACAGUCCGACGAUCCCUGUGCUACACAUCGUAUGUACCGAAUCGGGUUUUUUUGGGUUUUUUUGGGUUUUUGGGAAAGUAUUAUGUUACGCCGUUCGGAUCUGCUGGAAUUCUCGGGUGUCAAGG", "log2 enrichment": -1.03}
{"data": "Block 5", "target": "Prothrombin, mature alpha-thrombin (F2, Homo sapiens, UniProt P00734)", "method": "aptamer microarray, sandwich", "form": "DNA with 2'F-ANA", "sample": "in vitro", "tested at": "200 nM", "notes": "whole 15-mer aptamer, many near background", "with": "Cy3 exosite-II aptamer, 400 nM", "direction": "higher = stronger binding", "oligonucleotide": "GGTTGGTGTGGTTGG"}
{"Modification": "2'F-ANA at 2 4 5 6 8 12 13 14", "mean fluorescence intensity": "46 a.u."}
{"Modification": "2'F-ANA at 1 2 3 5 6 7 9 10 11 15", "mean fluorescence intensity": "84 a.u."}
{"Modification": "2'F-ANA at 1 4 7 11 12 14", "mean fluorescence intensity": "57.2 a.u."}
{"Modification": "2'F-ANA at 1 2 4 5 7 9 10 12", "mean fluorescence intensity": "50.6 a.u."}
{"Modification": "2'F-ANA at 1 2 4 6 8 9 10 11 15", "mean fluorescence intensity": "51.2 a.u."}
{"Modification": "2'F-ANA at 1 2 4 5 7 8 11 12 14 15", "mean fluorescence intensity": "48.5 a.u."}
{"Modification": "2'F-ANA at 1 2 3 4 5 6 7 8 9 12 13", "mean fluorescence intensity": "102 a.u."}
{"Modification": "2'F-ANA at 2 4 9 11 12 14", "mean fluorescence intensity": "121 a.u."}
{"Modification": "2'F-ANA at 2 4 6 8 12 13", "mean fluorescence intensity": "377 a.u."}
{"Modification": "2'F-ANA at 2 4 6 9 11 13 15", "mean fluorescence intensity": "122 a.u."}
{"Modification": "2'F-ANA at 1 4 9 10 12 14 15", "mean fluorescence intensity": "62.4 a.u."}
{"Modification": "2'F-ANA at 2 3 4 7 10 11 13", "mean fluorescence intensity": "206 a.u."}
{"Modification": "2'F-ANA at 3 4 9 10", "mean fluorescence intensity": "275 a.u."}
{"Modification": "2'F-ANA at 4 5 7 9 12", "mean fluorescence intensity": "158 a.u."}
{"note": "Some of these lines once more (block 1):"}
{"Oligonucleotide": "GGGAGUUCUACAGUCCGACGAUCCCAUUGAUUCAGGAAGCAGAUUUUUUGAGUGCCUAUAUGUGAGACAGUGUGCUGGUUGAAGGCCUGAUGCUGUUAUUCCAGGAGACUGCAGGCCCUUGAUGCCAGGACUCUGGAAUUCUCGGGUGCCAA", "RBNS enrichment (R)": 0.532}
{"Oligonucleotide": "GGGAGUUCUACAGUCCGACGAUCGCCUGCAGCAACAGAACACUUGACCUUAAAAGUCUCUUCUGGUCUUUGGAUUAGAAAAGGCUUAUGUUAGCAACCUCAGAGACUUGAGCCCUGCUAAGUGACUGACCACUUGGAAUUCUCGGGUGCCAA", "RBNS enrichment (R)": 0.567}
{"Oligonucleotide": "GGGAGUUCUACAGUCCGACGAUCACAGAGUCAGCCUCUAGUAGACCCUGCUCUUUUGCCCCUGGGGCGGGGAGGGUUGGCAGUGGUGGGGCCCAUCCUCUAUCCUGUAGCUCCUGCCGCUGCGAGGCUGAACUUGGAAUUCUCGGGUGCCAA", "RBNS enrichment (R)": 0.353}
{"Oligonucleotide": "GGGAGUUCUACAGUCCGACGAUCCAUCAUAUUGAUGAGCGAACAAACAAGAACAUUUCCUCCCUCCCCUCCUUUGAAUUGAAAUGGCACAUUAAGACUUGUCACGGCUUCUCACUGGGACUGGAGACCUCGUUUGGAAUUCUCGGGUGCCAA", "RBNS enrichment (R)": 0.414}
{"Oligonucleotide": "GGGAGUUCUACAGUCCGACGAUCUUUAAGAAAUAACCUCUUACAGUUGUAACCAUUGCGGCUCUGUCCACUUCUCGUUGCUGCUCUGUGGCACAUAUCGGAAGCAGUACAGCGCGCGGCUCUACACGCUUGGGUGGAAUUCUCGGGUGCCAA", "RBNS enrichment (R)": 0.219}
{"Oligonucleotide": "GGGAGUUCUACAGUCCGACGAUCUUGACUUGGAAAGACUUUCAUCUCCUUGGAACCAAGACUUCCUGAGUCCCCCUCACCCUGGCCCUGUUCCACCAUGGUUAUCUGGGUAUUGGGGAAUGGAAACUUUGGGGUGGAAUUCUCGGGUGCCAA", "RBNS enrichment (R)": 0.217}
{"Oligonucleotide": "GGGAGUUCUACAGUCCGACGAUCCCAUUACUUACCUAGUCAUUGUGGAACAUGACUAUGGAGAGCAUUGUAUAUUUCUAUCUGGUAGUAAUGUGUAUUUACAACAUCUGUCACUGCAGUGUUACCGGAGCUUCUGGAAUUCUCGGGUGCCAA", "RBNS enrichment (R)": 0.805}
{"Oligonucleotide": "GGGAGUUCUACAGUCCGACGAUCGGCCUUAAAGGAAAUGGACAAAAAUUAUCCAGAAGGGGUACUUUUCCAUUGUAUCUUUCUAAUAAGGGUUUAAAAUGGUACUAUUAUGGUAUUGUACUUGGGCUUUAACAUGGAAUUCUCGGGUGCCAA", "RBNS enrichment (R)": 0.381}
